# Assay results from different studies.
# Compare with care: the assays were run in different laboratories. ± gives the spread as reported.
# Organism: Plasmodium falciparum
SMILES,assay,test system,conditions,IC50
CN(C(=O)c1ccn2ncc(-c3ccc(C(N)=O)cc3)c2c1)c1ccc(C#N)cn1,parasite growth,3D7,,3 ± 1 nM
CC(C)(C)OC(=O)CNC(=O)[C@H](CCC(=O)N(O)c1ccc(Br)cc1)NC(=O)NC[C@H](N)C(=O)OC(C)(C)C,"blood-stage growth, Giemsa-stained smears",3D7,"48 h, asynchronous culture",30000 nM
CCNCC#CCNc1ccnc2cc(Cl)ccc12,"parasite growth, SYBR Green I",3D7,mean of experiments,34 ± 4 nM
N#Cc1c(-c2ccco2)[n+]([O-])c2ccc(F)cc2[n+]1[O-],"parasite growth, [3H]hypoxanthine incorporation",3D7 chloroquine-sensitive,,770 ± 220 nM
N[C@@H](CCC(=O)N[C@@H](CCC(=O)N(O)c1ccc(Br)cc1)C(=O)NCC(=O)O)C(=O)O,"blood-stage growth, Giemsa-stained smears",3D7,48 h,~70000 nM
COCn1ccc(NCCNCCCOc2ccc3c(NCCCc4ccccc4)ncnc3c2)nc1=O,parasite growth,NF54,blood stage,2380 nM
CCCCCCCCCC1CC2CCC3CC(CCCCCCCCC)NC(=N1)N23 (stereo not drawn),"parasite growth, plasmodial LDH",W2 chloroquine-resistant,,1430 nM
C1=CC(c2ccc[nH]2)=NC1=CNC1CCCCCC1,"parasite growth, SYBR Green I fluorescence","D6, chloroquine-sensitive",,> 2500 nM
CCCCCC1CC2CCCC3CC(C)N=C(N1)N32 (stereo not drawn),"parasite growth, plasmodial LDH",D6 chloroquine-sensitive,,880 nM
COc1cccc2c(-c3ccc(O)c4c3CCNC4)ccc(O)c12,"parasite growth, SYBR Green",NF54,"96 h, blood stage",576 nM
O=C(C1CCN(c2nnnn2-c2cccc(Cl)c2)CC1)N1CCCc2ccccc21,"parasite growth, SYBR Green",3D7,"72 h, blood stage",3400 nM
O=C(C=CC(Cc1ccccc1)Nc1ccnc2cc(Cl)ccc12)NCCN1CCOCC1 (stereo not drawn),parasite growth,3D7,blood stage,44.9 nM
Clc1ccc(C2=CC(c3ccc[nH]3)=NC2=CNC2CCCC2)cc1,"parasite growth, SYBR Green I fluorescence","D6, chloroquine-sensitive",,1220 nM
CC[C@H](C)[C@@H]1NC(=O)[C@H](CCCCN)NC(=O)[C@H](CCCCN)NC(=O)[C@H](Cc2ccc(O)cc2)NC(=O)[C@H](CC(C)C)NC(=O)[C@@H]2CCCN2C(=O)CNC(=O)CNC(=O)[C@@H](NC(=O)CN)CSSC[C@@H](C(=O)N[C@@H](CCC(=O)O)C(=O)N[C@@H](CO)C(N)=O)NC(=O)[C@H](CC(C)C)NC(=O)[C@H](CCCCN)NC(=O)[C@H](CCCCN)NC(=O)[C@H]([C@@H](C)CC)NC(=O)[C@H]([C@@H](C)CC)NC(=O)[C@H](CCCCN)NC(=O)[C@H](CCCCN)NC(=O)[C@H](Cc2ccc(O)cc2)NC(=O)[C@H](CC(C)C)NC(=O)[C@@H]2CCCN2C(=O)[C@H](C)NC(=O)CNC(=O)CNC(=O)[C@H](CO)NC(=O)CNC(=O)CNC(=O)[C@H](CO)NC(=O)[C@H](CCC(=O)O)NC(=O)[C@H](CC(C)C)NC(=O)[C@H](CC(C)C)NC(=O)[C@H](CCCCN)NC(=O)[C@H](CCCCN)NC(=O)[C@H]([C@@H](C)CC)NC1=O,parasite growth,3D7,"72 h, Albumax II medium, no serum",13600 ± 1700 nM
CCC1=CC(=CNC23CC4CC(CC(C4)C2)C3)N=C1c1ccc[nH]1,"parasite growth, SYBR Green I fluorescence","D6, chloroquine-sensitive",,117 nM
COc1cccc2c(-c3ccc(O)c4c3C[C@@H](C)N[C@@H]4C)c(C)cc(O)c12,"parasite growth, SYBR Green",NF54,"96 h, blood stage",42 nM
O=C(C1CCN(c2nnnn2-c2ccccc2C(F)(F)F)CC1)N1CCCc2ccccc21,"parasite growth, SYBR Green",3D7,"72 h, blood stage",4300 nM
COc1cc(O)c(-c2cc(-c3c(C)cc(O)c4c(OC)ccc(-c5c(O)cc(OC)c6c5C[C@@H](C)N(C)[C@@H]6C)c34)c(O)c3c(OC)cc(C)cc23)c2c1[C@@H](C)N(C)[C@H](C)C2,parasite growth,NF54,blood stage,39 nM
CC1=CC(c2ccc[nH]2)=NC1=CNC1CCCCCCC1,"parasite growth, SYBR Green I fluorescence","D6, chloroquine-sensitive",,> 250 nM
COc1cccc2c1CCCN2C(=O)C1CCN(c2nnnn2-c2ccccc2)CC1,"parasite growth, SYBR Green",3D7,"72 h, blood stage",> 10000 nM
COc1cc(O)c(-c2cc(-c3cc(-c4c(O)cc(OC)c5c4C[C@@H](C)N[C@@H]5C)c4cc(C)cc(OC)c4c3O)c(O)c3c(OC)cc(C)cc23)c2c1[C@@H](C)N[C@H](C)C2,"parasite growth, SYBR Green",NF54,"96 h, blood stage",88 nM
O=C(C1CCN(c2nnnn2-c2ccccc2)CC1)N1CCCc2ccccc21,parasite growth,DD2,blood stage,895 nM
CC(=O)O[C@H]1C[C@@H]2[C@@]3(C)C=CC(=O)C(C)(C)[C@H]3C[C@@H](O)[C@@]2(C)C2=CC[C@@H](c3ccoc3)[C@@]21C,[3H]hypoxanthine incorporation,"D6, chloroquine-sensitive",,31000 ± 200 nM
CCC1=C(C)C(=CNC23CC4CC(CC(C4)C2)C3)N=C1c1ccc[nH]1,"parasite growth, SYBR Green I fluorescence","D6, chloroquine-sensitive",,5.5 nM
CCN(CC)c1ccc2nc3c4ccccc4/c(=N/c4ccncc4)cc-3oc2c1,"parasite growth, [3H]hypoxanthine incorporation",NF54,72 h,0.0032 µg/mL
COC(=O)[C@@H]1Cc2c([nH]c3ccccc23)[C@H](c2cccs2)N1,parasite growth,3D7,"48 h, blood stage",6.84 µg/mL
COc1cc2nc(N3CCCN(C)CC3)nc(NC3CCN(C)CC3)c2cc1OC,"parasite growth, SYBR Green I",3D7,3 days,> 300 nM
O=C(O)[C@@H]1Cc2c([nH]c3ccccc23)[C@@H](c2ccc(Br)cc2Cl)N1,parasite growth,Dd2,72 h,320 ± 60 nM
C[N+]1=C2C=C(NCCc3c[nH]c4ccccc34)C(=O)c3[nH]cc(c32)CC1,"parasite growth, SYBR Green",3D7,blood stage,9 nM
COc1cc(C)ccc1NC(=O)C1c2ccccc2CCN1C(=O)OC(C)(C)C (stereo not drawn),"parasite growth, SYBR Green",3D7,"96 h, blood stage",32000 nM
C#CCOc1cc(C(=O)C2=C(C)C(=O)c3ccccc3C2=O)ccc1[N+](=O)[O-],"parasite growth, SYBR Green",Dd2,"72 h, synchronized ring stage",417 ± 222 nM
CCCCN1C(=O)c2ccc3c4c(ccc(c24)C1=O)C(=O)N(c1c2ccc(Cl)cc2nc2ccc(OC)cc12)C3=O,"parasite growth, SYBR Green",3D7,"72 h, blood stage",3780 nM
COc1ccc2c(c1)N(C(=O)C1CCN(c3nnnn3-c3ccccc3)CC1)CCC2,"parasite growth, SYBR Green",3D7,"72 h, blood stage",1200 nM
c1ccc(Cn2c(N3CCNCC3)nc3cccnc32)cc1,parasite growth,NF54,blood stage,> 1000 nM
C[C@@H]1C(=O)O[C@@H](C)/C=C/C=C\[C@@H](C)[C@@H]2C=C[C@@H]3C[C@]4(C)O[C@@H]4[C@@H](C)[C@H]3[C@@H]2C(=O)C(Cl)(Cl)C1=O,"parasite growth, ELISA",3D7,blood stage,100 nM
COc1ccc2c(c1)C1CC(C)(N2)c2c(C)nc3ccc(OC)cc3c21 (stereo not drawn),asexual stage growth,INDO,"12 h, trophozoite stage",38100 nM
COc1ccc2c(c1)[n+]([O-])c(C#N)c(-c1ccco1)[n+]2[O-],"parasite growth, [3H]hypoxanthine incorporation",3D7 chloroquine-sensitive,,630 ± 140 nM
CNC(=O)c1ccc(-c2cnn3ccc(C(=O)N(C)c4ccc(C#N)cn4)cc23)cc1,parasite growth,3D7,,5 ± 1 nM
Clc1ccc(C2=CC(c3ccc[nH]3)=NC2=CNC2CCCCCCC2)cc1,"parasite growth, SYBR Green I fluorescence","D6, chloroquine-sensitive",,832 nM
COc1cccc2c(-c3ccc(O)c4c3CC(C)(C)N=C4)ccc(OC(C)C)c12,"parasite growth, SYBR Green",NF54,"96 h, blood stage",715 nM
COC1=CC(c2ccc[nH]2)=NC1=CNC1CCC1,"parasite growth, SYBR Green I fluorescence","D6, chloroquine-sensitive",,591 nM
CC1C=CC=CC(C)C2C=CC3CC(C)(O)C(O[N+](=O)[O-])C(C)C3C2C(=O)C(Cl)(Cl)C(=O)C(C)C(=O)O1 (stereo not drawn),"parasite growth, ELISA",3D7,blood stage,0.9 nM
Cc1nn(CCO)c2ncc(C(=O)c3cc(Cl)ccc3O)cc12,parasite growth,NF54,"72 h, blood stage",6000 nM
CN(C)CCCOc1ccc2cc1Oc1ccc(cc1)CC1c3c(cc(OCCCN(C)C)c4c3Oc3cc5c(cc3O4)CCN(C)C5C2)CCN1C (stereo not drawn),"parasite growth, SYBR Green",NF54,"72 h, blood stage",123 nM
Cc1cc(N2CCC(C#N)(C3(C)CC3)C2=O)cc(C(=O)NCc2cc(F)cc(-c3cnn(C)c3)c2)n1 (racemic),"parasite growth, [3H]hypoxanthine incorporation",NF54 sensitive,72 h,18 nM
CC1C=CC=CC(C)C2C=CC3CC(C)(O)C(O)C(C)C3C2C(=O)C(Cl)(Cl)C(=O)C(C)C(=O)O1 (stereo not drawn),"parasite growth, ELISA",3D7,blood stage,> 2200 nM
CCCCN1C(=O)c2ccc3c4c(ccc(c24)C1=O)C(=O)N(c1c2ccccc2nc2ccccc12)C3=O,"parasite growth, SYBR Green",3D7,"72 h, blood stage",4200 nM
CC(C)(C)OC(=O)CNC(=O)[C@H](CCC(=O)N(O)c1ccc(Br)cc1)NC(=O)CC[C@H](N)C(=O)OC(C)(C)C,"blood-stage growth, Giemsa-stained smears",3D7,"48 h, asynchronous culture",35000 nM
N#Cc1c(-c2ccco2)[n+]([O-])c2ccccc2[n+]1[O-],"parasite growth, [3H]hypoxanthine incorporation",3D7 chloroquine-sensitive,,750 ± 310 nM
c1ccc(-c2ccc(CNc3ncnc4cc(OCC5CCN(CCNc6ccnc7ccccc67)CC5)ccc34)cc2)cc1,parasite growth,NF54,blood stage,513 nM
CCC1=CC(c2ccc[nH]2)=NC1=CNC1CCCCCCC1,"parasite growth, SYBR Green I fluorescence","D6, chloroquine-sensitive",,> 250 nM
N#Cc1c(-c2cccs2)[n+]([O-])c2ccc(Cl)cc2[n+]1[O-],"parasite growth, [3H]hypoxanthine incorporation",3D7 chloroquine-sensitive,,7410 ± 200 nM
C[C@@H](C[C@@H](O)[C@H](O)C(C)(C)O)[C@@H]1CC[C@]2(C)C3=CC[C@H]4C(C)(C)[C@@H](O)CC[C@]4(C)[C@H]3CC[C@@]12C,[3H]hypoxanthine incorporation,"D6, chloroquine-sensitive",,36800 ± 2000 nM
CC1=N[C@H](C)Cc2c(-c3ccc(C(F)(F)F)cc3)ccc(O)c21,"parasite growth, SYBR Green",NF54,"96 h, blood stage",4000 nM

# Excerpt of the above:
SMILES,assay,test system,conditions,IC50
Clc1ccc(C2=CC(c3ccc[nH]3)=NC2=CNC2CCCC2)cc1,"parasite growth, SYBR Green I fluorescence","D6, chloroquine-sensitive",,1220 nM
c1ccc(Cn2c(N3CCNCC3)nc3cccnc32)cc1,parasite growth,NF54,blood stage,> 1000 nM
CCNCC#CCNc1ccnc2cc(Cl)ccc12,"parasite growth, SYBR Green I",3D7,mean of experiments,34 ± 4 nM
CC(C)(C)OC(=O)CNC(=O)[C@H](CCC(=O)N(O)c1ccc(Br)cc1)NC(=O)NC[C@H](N)C(=O)OC(C)(C)C,"blood-stage growth, Giemsa-stained smears",3D7,"48 h, asynchronous culture",30000 nM
CCC1=C(C)C(=CNC23CC4CC(CC(C4)C2)C3)N=C1c1ccc[nH]1,"parasite growth, SYBR Green I fluorescence","D6, chloroquine-sensitive",,5.5 nM
COc1cc(O)c(-c2cc(-c3c(C)cc(O)c4c(OC)ccc(-c5c(O)cc(OC)c6c5C[C@@H](C)N(C)[C@@H]6C)c34)c(O)c3c(OC)cc(C)cc23)c2c1[C@@H](C)N(C)[C@H](C)C2,parasite growth,NF54,blood stage,39 nM
COC(=O)[C@@H]1Cc2c([nH]c3ccccc23)[C@H](c2cccs2)N1,parasite growth,3D7,"48 h, blood stage",6.84 µg/mL
COc1cccc2c(-c3ccc(O)c4c3CC(C)(C)N=C4)ccc(OC(C)C)c12,"parasite growth, SYBR Green",NF54,"96 h, blood stage",715 nM
Clc1ccc(C2=CC(c3ccc[nH]3)=NC2=CNC2CCCCCCC2)cc1,"parasite growth, SYBR Green I fluorescence","D6, chloroquine-sensitive",,832 nM
